# Assay results collected from several papers.
# A part holds a random share of what one study measured.

# Study 1
# Target: Sal-like protein 4, full length isoform A (SALL4, Homo sapiens, UniProt Q9UJQ4, residues 1-1053)
# Sequence of UniProt Q9UJQ4 (whole entry, looked up): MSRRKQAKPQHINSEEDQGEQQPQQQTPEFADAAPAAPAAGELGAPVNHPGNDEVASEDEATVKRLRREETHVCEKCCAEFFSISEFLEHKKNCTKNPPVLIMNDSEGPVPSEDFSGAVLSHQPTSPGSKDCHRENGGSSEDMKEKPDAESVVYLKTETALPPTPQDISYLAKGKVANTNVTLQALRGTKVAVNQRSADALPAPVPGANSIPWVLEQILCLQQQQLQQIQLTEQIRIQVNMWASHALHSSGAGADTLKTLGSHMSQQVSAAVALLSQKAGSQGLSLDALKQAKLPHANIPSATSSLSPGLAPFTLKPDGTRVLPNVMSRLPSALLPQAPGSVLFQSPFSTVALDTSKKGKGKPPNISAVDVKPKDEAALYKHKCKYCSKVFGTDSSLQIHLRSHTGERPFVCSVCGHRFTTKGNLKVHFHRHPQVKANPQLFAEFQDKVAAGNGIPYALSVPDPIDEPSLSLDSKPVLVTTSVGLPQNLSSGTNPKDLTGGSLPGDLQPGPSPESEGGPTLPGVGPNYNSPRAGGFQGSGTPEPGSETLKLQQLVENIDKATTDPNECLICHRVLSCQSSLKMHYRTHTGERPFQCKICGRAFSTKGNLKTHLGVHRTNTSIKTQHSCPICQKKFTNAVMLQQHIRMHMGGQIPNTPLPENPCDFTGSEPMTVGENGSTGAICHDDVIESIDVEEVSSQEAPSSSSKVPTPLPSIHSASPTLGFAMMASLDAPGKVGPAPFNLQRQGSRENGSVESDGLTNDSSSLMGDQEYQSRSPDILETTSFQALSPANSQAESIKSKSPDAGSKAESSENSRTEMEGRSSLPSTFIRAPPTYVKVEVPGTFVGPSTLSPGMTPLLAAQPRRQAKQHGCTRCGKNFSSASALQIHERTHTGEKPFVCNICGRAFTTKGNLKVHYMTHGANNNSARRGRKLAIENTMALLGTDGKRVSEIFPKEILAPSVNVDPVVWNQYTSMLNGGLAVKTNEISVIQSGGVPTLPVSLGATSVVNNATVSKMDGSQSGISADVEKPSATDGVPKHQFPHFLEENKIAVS
# Technique: universal PBM
# Form: double-stranded DNA, one strand shown
# Matrix: in vitro
# Tested at: 600 nM
# Setting: 8-mer, flanks averaged, mean of replicates
# Reading: higher = stronger binding
Oligonucleotide,E-score
CGGTTAGA,-0.193
CTATCCGC,-0.119
CAGCGTAC,-0.199
CAAGGGCC,-0.31
CGCCGCGA,-0.216
GCAGTATA,0.0927
AATTGGGG,-0.0818
AGTTTGGG,0.00171
GGTAGGAA,-0.0301
CTAGTGCA,0.127
ATACCAAC,0.136
ACTGGTAC,-0.167
CCGTAGAA,-0.0569
CGGTAATC,-0.0877
CCATATGA,0.119
ACCGAGGC,-0.35
ACTGAGCC,-0.275
GACGCGCA,-0.217
ACAGAACC,-0.105
CGAATCCG,-0.257
CTATGCTA,0.18
CCAGGCAG,-0.301
AGGAGTAT,0.0164
GTCCTCAA,-0.0381
CACTATTA,0.239

# Study 2
# Target: TAR DNA-binding protein 43, full length, His tag (TARDBP, Homo sapiens, UniProt Q13148, residues 1-414)
# Technique: RNA Bind-n-Seq
# Form: RNA
# Matrix: in vitro
# Tested at: 20 nM
# Setting: 6-mer, flanks averaged, single round
# Added: 150 mM KCl
# Reference: input library
# Reading: higher = stronger binding
Oligonucleotide,6-mer enrichment (R)
AAACCC,0.604
ACUCAA,0.604
UACCGU,0.61
GUUACU,0.611
AUGGAA,0.889
GCUGUA,0.86
CGAACC,0.64
UGGGGU,3.47
UCAUUG,0.597
AGGGGC,4.14
CGGCGU,1.33
AACGAA,0.698
GCCCUG,0.811
GACCUG,0.896
UUGUAA,0.655
CCACCU,0.609
AGCCAC,0.702
AUGAAA,0.735
CAAACU,0.595
GUUCAC,0.618
UUCAUC,0.518

# Study 3
# Target: Histone acetyltransferase KAT6A, winged helix 2, GST fusion (KAT6A, Homo sapiens, UniProt Q92794, residues 85-181)
# Technique: protein binding microarray
# Form: double-stranded DNA, one strand shown
# Matrix: in vitro
# Tested at: not given
# Setting: 8-mer, flanks averaged, mean of 2 arrays, mostly near background
# Reference: not given
# Reading: higher = stronger binding
# Residues (chain): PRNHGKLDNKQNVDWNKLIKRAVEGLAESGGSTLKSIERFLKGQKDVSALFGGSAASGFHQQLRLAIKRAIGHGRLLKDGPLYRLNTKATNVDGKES
Oligonucleotide,E-score
AGCGTACA,-0.0233
CAGACTTA,-0.254
CTTCCTTC,-0.0818
AAGCGATT,-0.0758
GCCGCGAC,0.112
ATACCTGC,0.0106
TCTATGAA,0.13
CGATTTGA,-0.157
GTGTTTAA,0.0706
CGAAAACA,0.0652
AAGACCTT,-0.0598
GTGAGTCA,-0.0766
TATACGCA,0.159
AGCTAATC,0.167
CGCCGCCG,0.333
GGACCTGA,0.0143
AAATACGG,-0.0518
GGATTTAA,-0.0629
CCGCATAC,0.0779
CATTAACG,-0.0918
CAGACATC,0.0712
CCTATCAC,-0.088
CTTATAAG,-0.0144
CCGCGCCC,0.187
CGGACACA,-0.00588

# Study 4
# Target: Interferon regulatory factor 7, full length, phosphomimetic (IRF7, Homo sapiens, UniProt Q92985, residues 1-503, S101K/S471D/S472D/S475D/S476D/S477D/S483D/S484D/S487D)
# Technique: protein-binding microarray
# Form: double-stranded DNA, one strand shown
# Matrix: in vitro
# Tested at: 250 nM
# Setting: 60-bp whole probe
# Added: salmon DNA 0.4 mg/ml
# Reference: random background probes
# Reading: higher = stronger binding
# Constant ends, left off below: GCCTAGCAC … GTCTTGATTCGCTTGACGCTGCTG
# Construct (chain): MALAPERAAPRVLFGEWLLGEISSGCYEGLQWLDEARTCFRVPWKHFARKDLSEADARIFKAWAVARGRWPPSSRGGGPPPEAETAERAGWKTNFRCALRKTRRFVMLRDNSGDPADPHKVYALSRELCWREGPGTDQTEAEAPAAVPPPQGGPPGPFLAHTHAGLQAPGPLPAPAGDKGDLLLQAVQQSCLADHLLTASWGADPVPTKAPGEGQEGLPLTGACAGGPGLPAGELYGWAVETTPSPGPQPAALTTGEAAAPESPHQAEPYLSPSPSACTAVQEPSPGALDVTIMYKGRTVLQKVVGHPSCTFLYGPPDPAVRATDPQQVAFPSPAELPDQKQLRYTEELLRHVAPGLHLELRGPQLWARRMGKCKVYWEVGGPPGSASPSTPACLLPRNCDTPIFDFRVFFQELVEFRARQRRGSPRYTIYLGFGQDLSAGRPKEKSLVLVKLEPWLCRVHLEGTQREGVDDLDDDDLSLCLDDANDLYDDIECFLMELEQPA
Oligonucleotide,log fluorescence [z-score]
TTAGACCTCAGTTTCGATTAGTGCTAG,8.6
GACGATTTCAGTTTCGAAACGTGCTAG,6.47
TCACATCTCAAGTAGCCTACTGTGCTA,0.273
GACGGTTCGGGTTTCGGGACGTGCTAG,2.99
TTAGATATCAGACTGGATGAGTGCTAG,-0.179
TTAGGTCTCGGTATCGGTGAGTGCTAG,2.17
TCATTTTTTTTTTCTACACTGTGCTAG,1.12
TTTGCTTTCTTTATGCACTCGTGCTAG,0.849
ATAGATTTCGGGACTGGATTAGTGCTA,0.314
GCATCTATCTTAAATAGGGACGTGCTA,0.509
GACGGTTCCCTTTTCCTGGCGTGCTAG,2.74
TAAGATATCGGGACTGGATTAGTGCTA,0.115
AGGCCTCTGGGATCCCAGTCGGTGCTA,-0.313
GACAGTTTCCTTATCCTGACGTGCTAG,3.01
GACGGACTGGGTTTCGGGATGTGCTAG,3.09
GACGGTTCCGGTTTGGGGACGTGCTAG,5.93
TCACTTTCCAATTGTCCTACTGTGCTA,3.82
TTAGGTTTCCTTATCCTGTAGTGCTAG,2.81
CTCATTTTCGTTTTGTGTCTGTGCTAG,10.8

# Study 5
# Target: RING finger protein unkempt homolog, zinc fingers 1-6, GST-SBP tag (UNK, Homo sapiens, UniProt Q9C0B0, residues 30-357)
# Technique: RNA Bind-n-Seq
# Form: RNA
# Matrix: in vitro
# Tested at: not given
# Setting: RNA with constant flanks, human and mouse sites, ends assumed
# Reference: input RNA pool
# Reading: higher = stronger binding
# Constant ends, left off below: GGGAGUUCUACAGUCCGACGAUC … CAACAGAGGAUUGAGCAUCA
# Residues (chain): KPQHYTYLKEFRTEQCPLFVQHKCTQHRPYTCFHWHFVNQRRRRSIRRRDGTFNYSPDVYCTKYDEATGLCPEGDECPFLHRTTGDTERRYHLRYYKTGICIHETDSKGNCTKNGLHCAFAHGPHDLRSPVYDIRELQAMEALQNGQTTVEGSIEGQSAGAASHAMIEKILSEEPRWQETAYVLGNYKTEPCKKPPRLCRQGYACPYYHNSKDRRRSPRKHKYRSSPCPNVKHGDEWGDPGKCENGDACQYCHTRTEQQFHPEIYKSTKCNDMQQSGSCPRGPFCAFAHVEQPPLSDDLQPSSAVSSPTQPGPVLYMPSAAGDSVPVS
Oligonucleotide,bound/input enrichment
AAAAAAUGCUUAAAUUGUCAAACUGUCAUUACUUCUUAUUAUAGUUGAAGGCAUUCUCCAGAUUCUUUUUAAAAGAUUUGUUCAUAUUUCUCUCUCUCUCUCUCUCUCUCUCUCUCUCUU,1.02 ratio
AAAGGAGAAUCUGGCCAGUCAUGGCCAAGGUUAACAAAAGAAAGGGCAAAGCUUAAUUGGCUUAGUGUCGACUUCAAUAAUUGGAAAGACUGGGAAGAUGAUUCAGAUGAAGACAUGUCU,0.358 ratio
GGUGCCUUUGCUUUGCCCAUCCUGAAUGCCCUGCUGGAGACGCCCCAGCGACUGUUCGCCCUGGUCCUCACCCCUACUCGAGAGUUGGCCUUUCAGAUCUCUGAGCAGUUCGAGGCCCUG,0.1 ratio
ACGCCCAGCCGCCGAGCCCUGCCUGGCCCCUGCCGACGGCCCCAGCUGGACCUGGACAUCCUCAGCAGCCUCAUCGACUUGUGUGACAGCCCCGUGUCCCCUGCCGAGGCCAGCCGCACU,0.136 ratio
UGUUUCUUUUGCUGGUGAGGUUCUUUUGUUUUUUGUUUUGGUUGUUUUUUUUUUGUUUGUUUGUUUCUAAUUGGGGCAGAUUUGGGCUCCCCAUGCAGCCCUGCUGGCCUGGUGUUCCCU,3.71 ratio
CUGGCACUAACUGUGACAUCUAUGACCUUUUUUAUCAUCGCACAAGCCCCUGAACCAUAUAUUGUUAUCACUGGAUUUGAAGUCACCGUUAUCUUAUUUUUCAUACUUUUAUAUGUACUC,2.63 ratio
GAGCCCUAUGGCUUCCGUGCCUCAGUGUUAUUCGAUACAAUGCAACACCAUCUAGCCUUGAAUAGAGAUUUGUCCACACCUGGCCUGGAGAAGGACAGUGGAGGGAAGACACCUGGUGAC,0.445 ratio
GAAAUUGGUAAUCGAUACAUCGAGAUAUUUCCAAGCAGAAGGAAUGAAGUUCGAACACAUGUCGGUUCUUAUAAGGGAAAGAAAAUCGCAUCUUUUCCUACUGCUAAGUAUAUAACUGAG,0.0966 ratio

# Some of these lines once more (study 4):
Oligonucleotide,log fluorescence [z-score]
GACGGTTCCGGTTTGGGGACGTGCTAG,5.93
AGGCCTCTGGGATCCCAGTCGGTGCTA,-0.313
GACGGTTCCCTTTTCCTGGCGTGCTAG,2.74
GACGGACTGGGTTTCGGGATGTGCTAG,3.09
TCACATCTCAAGTAGCCTACTGTGCTA,0.273
TTAGATATCAGACTGGATGAGTGCTAG,-0.179
ATAGATTTCGGGACTGGATTAGTGCTA,0.314
TCATTTTTTTTTTCTACACTGTGCTAG,1.12
TTAGGTTTCCTTATCCTGTAGTGCTAG,2.81
TAAGATATCGGGACTGGATTAGTGCTA,0.115
GACGATTTCAGTTTCGAAACGTGCTAG,6.47
CTCATTTTCGTTTTGTGTCTGTGCTAG,10.8
GCATCTATCTTAAATAGGGACGTGCTA,0.509
TCACTTTCCAATTGTCCTACTGTGCTA,3.82
TTAGGTCTCGGTATCGGTGAGTGCTAG,2.17
